Results pooled from the literature.
Every numbered part comes from another study and shows a few of its results, in no order. Positions count from the first letter of the parent shown.

Block 1
Target: ABI1, truncated, D143A, DHFR fusion (Arabidopsis thaliana, UniProt P49597)
Method: DHFR PCA, dose-response
Matrix: yeast
Setting: Hill fit, mean, not affinity
With: (+)-ABA, dose series
Reading: lower = more sensitive
Starting sequence: PYL1, truncated, DHFR fusion (Arabidopsis thaliana, UniProt Q8VZS8); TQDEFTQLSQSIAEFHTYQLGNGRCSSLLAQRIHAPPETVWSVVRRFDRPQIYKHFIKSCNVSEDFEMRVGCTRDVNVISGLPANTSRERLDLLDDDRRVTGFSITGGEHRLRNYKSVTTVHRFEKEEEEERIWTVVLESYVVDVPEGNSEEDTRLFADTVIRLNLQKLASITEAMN
With `E128K` the ABA EC50 was 2.51 µM.
`E125Q` has an ABA EC50 of 1.27 µM.
For `A30P`, the ABA EC50 was 61.9 µM.
The ABA EC50 of `L112F` is reported as 6.25 µM.
For `N22W`, the ABA EC50 was 6.67 µM.
`D97T` gave an ABA EC50 of 3 µM.
For `R88L`, the ABA EC50 was 3.47 µM.
With `H55R` the ABA EC50 was 0.205 µM.
`L91N` gave an ABA EC50 of 709 µM.
With `D75A` the ABA EC50 was 3.87 µM.
`I52E` has an ABA EC50 of 3.53 µM.
For `V143H`, the ABA EC50 was 886 µM.
For `D95L`, the ABA EC50 was 29.6 µM.
`C60G` gave an ABA EC50 of 934 µM.
`N165H` has an ABA EC50 of 158 µM.
`V62M` has an ABA EC50 of 5.08 µM.

Block 2
Target: Interferon regulatory factor 5, full length, phosphomimetic (IRF5, Homo sapiens, UniProt Q13568-2, residues 1-514, K96S/S451D/S453D/S456D/S462D)
Method: protein-binding microarray
Molecule type: double-stranded DNA, one strand shown
Matrix: in vitro
Tested at: 250 nM
Setting: 60-bp whole probe
With: salmon DNA 0.4 mg/ml
Reference: random background probes
Reading: higher = stronger binding
Shared flanks, not repeated: GCCTAGCAC … GTCTTGATTCGCTTGACGCTGCTG
`CTTTCACCTCTCGGCCTGATGTGCTAG` has a log fluorescence of 2.63 z-score.
For `TTAGGTTACGACTATCGGTTAGTGCTA`, the log fluorescence was 6.46 z-score.
For `AAGTTTTTCATTTTTTTTCAGTGCTAG`, the log fluorescence was 1.99 z-score.
The log fluorescence of `TTAGATCTTAGTCTCGATTAGTGCTAG` is reported as 0.983 z-score.
`TTAGGTTTCGGTTCCGATTAGTGCTAG` has a log fluorescence of 10.6 z-score.
With `CTTTTTTTCCGAGTGAGTAAGTGCTAG` the log fluorescence was 0.483 z-score.
With `ACTAGATAAGACAAAGTGATGTGCTAG` the log fluorescence was 0.188 z-score.
The log fluorescence of `TTAGATTTCTGGACTGGATTAGTGCTA` is reported as 0.807 z-score.
For `CACGATATCAGACTGGAGACGTGCTAG`, the log fluorescence was 0.11 z-score.
With `TTAGGTTTCCTTATCTTTTAGTGCTAG` the log fluorescence was 1.04 z-score.
The log fluorescence of `TCAATCTTATGATATATAACTGTGCTA` is reported as 0.661 z-score.
`TCAGTTTTACTTTCTATACTGTGCTAG` has a log fluorescence of 5.6 z-score.
`CCCCAACTCGCCTTTTTTGTTGTGCTA` gave a log fluorescence of 0.239 z-score.
For `TTAGAACTGAGTATCGATAAGTGCTAG`, the log fluorescence was 5.85 z-score.
`TCAAAAATGATTGGTTGACTGTGCTAG` gave a log fluorescence of 0.204 z-score.
The log fluorescence of `TTAGATTTCGGGTATAGATTAGTGCTA` is reported as 5.81 z-score.

Block 3
Target: Sal-like protein 4, full length isoform B (SALL4, Homo sapiens, UniProt Q9UJQ4-2, residues 1-616)
Method: universal PBM
Molecule type: double-stranded DNA, one strand shown
Matrix: in vitro
Tested at: not given
Setting: 8-mer, flanks averaged, mean of replicates
Reading: higher = stronger binding
`ACTTATGG` has an E-score of 0.215.
With `GGGGGAAA` the E-score was -0.0361.
With `CCACTAAA` the E-score was -0.00633.
For `CAAGTTGG`, the E-score was -0.0592.
For `CCACCGAC`, the E-score was -0.331.
For `CATGGCAC`, the E-score was -0.171.
With `CGCCCTCA` the E-score was -0.251.
`CAATAACC` gave an E-score of 0.261.
For `CAAACCTA`, the E-score was 0.0649.
With `ACCATAAG` the E-score was 0.202.
For `GGGAGTAA`, the E-score was 0.0327.
`ATCGCGTG` gave an E-score of -0.0948.
`CAACAAAA` has an E-score of 0.256.
With `TGGTGTAA` the E-score was 0.0962.
`GAGATAGA` gave an E-score of -0.0253.
`TCAACGAA` gave an E-score of -0.0418.
`CGTTGTGA` has an E-score of 0.0256.
The E-score of `CTAATTCC` is reported as 0.0587.
The E-score of `GAATCACC` is reported as -0.0506.
`AAGTCAGC` has an E-score of -0.171.
With `GCCCTTCA` the E-score was -0.149.
With `ACGTGTCG` the E-score was -0.0286.
With `CAGACCGG` the E-score was -0.4.
`CCCAGTCC` has an E-score of -0.179.

Block 4
Target: Ras GTPase-activating protein-binding protein 1, RRM domain (G3BP1, Homo sapiens, UniProt Q13283)
Sequence of UniProt Q13283 (whole entry, looked up): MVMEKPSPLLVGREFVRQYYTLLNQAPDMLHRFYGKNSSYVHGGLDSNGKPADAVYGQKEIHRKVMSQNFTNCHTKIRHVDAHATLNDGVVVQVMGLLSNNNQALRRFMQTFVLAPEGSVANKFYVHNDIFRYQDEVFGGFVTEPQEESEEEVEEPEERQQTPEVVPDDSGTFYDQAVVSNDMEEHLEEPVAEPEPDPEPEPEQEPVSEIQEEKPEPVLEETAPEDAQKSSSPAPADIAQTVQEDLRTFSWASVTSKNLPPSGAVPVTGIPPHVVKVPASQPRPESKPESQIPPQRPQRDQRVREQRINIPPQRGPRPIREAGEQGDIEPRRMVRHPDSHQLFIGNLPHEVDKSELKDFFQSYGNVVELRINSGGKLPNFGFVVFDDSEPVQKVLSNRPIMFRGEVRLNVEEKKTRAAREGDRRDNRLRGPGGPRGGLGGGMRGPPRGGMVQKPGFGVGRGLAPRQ
Method: RNA Bind-n-Seq
Molecule type: RNA
Matrix: in vitro
Tested at: 1 µM
Setting: whole 134-nt RNA, ends assumed
With: 150 mM KCl
Reference: input library
Reading: higher = stronger binding
Shared flanks, not repeated: GGGAGUUCUACAGUCCGACGAUC … UGGAAUUCUCGGGUGUCAAGG
With `UGGGAGGUGGAUUUUGUUUAUUUUUUUAGCUCAUUCCCAGGGGUGGGAAUUUUUUUUUAAUAUGUGUCAUGAAUAAAGUUGUUUUUGAAA` the log2 enrichment was 1.99.
`UGGGAGGUGGAUUUUGUUUAUUUUGUUAGCUCAUUUCCAGGGGUGGGAAUUUUUUUUUAAUAUGUGUCAUGAAUAAAGUUGUUUUUGAAA` gave a log2 enrichment of 1.75.
The log2 enrichment of `UCCUGUGCUACACAUCGUAUGUACCGAAUCAAAUUUAAAUUUUUUUAAACCCCCCCAAAAAAGUAUUAUGUUACGCCGUUCGGAUCUGCA` is reported as -0.845.
For `GUCCUGUGCUACACAUCGUAUGUACCGAAUCAAACCCCCCCAAACCCAAAUUUUUAAAAAAGUAUUAUGUUACGCCGUUCGGAUCUGCAC`, the log2 enrichment was -0.128.
The log2 enrichment of `UGGGAGGUGGAUUUUGUUUAUUUUUUUAGCUCAUUUCCAGGGGUGGGAAUUUUUUUUUAAUAUGUGUCAUGAAUUAAGUUGUUUUUGAAA` is reported as 1.21.
For `CCUGUGCUACACAUCGUAUGUACCGAAUCGGGCCCCCCCGGGCCCCCCCGGCCCCCCCGGAAAGUAUUAUGUUACGCCGUUCGGAUCUGC`, the log2 enrichment was -0.592.
With `GCAGGAAGUAAAAACAAAUAAAAAUGCUUCGGAUAGUGGCAGGGGUGGGGGUUGCUAAGGAAAGGGUGGGAUGGGAGUGGGUAAAGAGUU` the log2 enrichment was 0.867.
With `CCUGUGCUACACAUCGUAUGUACCGAAUCGGGAAAAAAAGGGAAAAAAAGGGUUUUUGGGAAAGUAUUAUGUUACGCCGUUCGGAUCUGC` the log2 enrichment was -0.00466.
For `GUCCUGUGCUACACAUCGUAUGUACCGAAUCAAAUUUUUUUAAACCCAAAUUUUUAAAAAAGUAUUAUGUUACGCCGUUCGGAUCUGCAC`, the log2 enrichment was -0.723.
For `UGCCCUCCGUGGAGUCUUUGUUUCGAAGUCCGAUAAAGGAAUCUCUAUUCCGGUCUUCUUCUAAAGAGUCUUUGGUACGAACAUCUUCCA`, the log2 enrichment was -0.216.

Block 5
Target: Histone acetyltransferase KAT6A, winged helix 1, GST fusion (KAT6A, Homo sapiens, UniProt Q92794, residues 1-85)
Method: protein binding microarray
Molecule type: double-stranded DNA, one strand shown
Matrix: in vitro
Tested at: not given
Setting: 8-mer, flanks averaged, mean of 2 arrays, mostly near background
Reference: not given
Reading: higher = stronger binding
Residues (chain): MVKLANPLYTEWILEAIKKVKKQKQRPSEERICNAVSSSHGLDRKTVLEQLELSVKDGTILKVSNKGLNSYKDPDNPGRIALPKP
The E-score of `CAAAGTGG` is reported as -0.248.
`ACTAGAAC` has an E-score of -0.0143.
`AAGCCGGT` has an E-score of 0.316.
`ACTAAAAC` gave an E-score of -0.0581.
`GTGCCATA` gave an E-score of -0.0152.
With `TAGAGTGA` the E-score was -0.202.
For `CACCAGCG`, the E-score was 0.0372.
`CATTATAG` gave an E-score of 0.0204.
`GAGTTTAA` gave an E-score of -0.226.
With `CTGAAACA` the E-score was -0.172.
For `AAGTAGAG`, the E-score was -0.243.
With `AGCTGACT` the E-score was -0.126.
`AATGCGGA` has an E-score of 0.135.
`CGTTCACC` has an E-score of 0.0715.
For `CCAAGTCA`, the E-score was -0.299.
For `GATAGTGA`, the E-score was 0.0178.
`TCAGGGAA` has an E-score of -0.0585.
The E-score of `GCAACCGC` is reported as 0.204.
The E-score of `AAACTTTG` is reported as -0.116.
With `AACACCCT` the E-score was -0.127.
For `ATCGTTTC`, the E-score was -0.155.
`TGACACCA` has an E-score of -0.209.
For `GGAGATGA`, the E-score was -0.103.
With `ACTGAGAG` the E-score was -0.232.
The E-score of `AGAATCGA` is reported as -0.103.

Some of these lines once more (block 2):
For `TTAGAACTGAGTATCGATAAGTGCTAG`, the log fluorescence was 5.85 z-score.
`CCCCAACTCGCCTTTTTTGTTGTGCTA` gave a log fluorescence of 0.239 z-score.
With `TTAGGTTTCCTTATCTTTTAGTGCTAG` the log fluorescence was 1.04 z-score.
The log fluorescence of `TTAGATTTCTGGACTGGATTAGTGCTA` is reported as 0.807 z-score.
The log fluorescence of `TTAGATCTTAGTCTCGATTAGTGCTAG` is reported as 0.983 z-score.
For `TTAGGTTACGACTATCGGTTAGTGCTA`, the log fluorescence was 6.46 z-score.
The log fluorescence of `TTAGATTTCGGGTATAGATTAGTGCTA` is reported as 5.81 z-score.
With `CTTTTTTTCCGAGTGAGTAAGTGCTAG` the log fluorescence was 0.483 z-score.
